Results pooled from the literature.
Compare with care: the assays were run in different laboratories.

Compound | test | test system | conditions | how to read | endpoint | result
CCC[C@@](N)(CO)CCc1ccc(OCCCCCC(C)C)cc1 | – | dog, male hounds, plasma | oral capsule, 20 mg/kg, median | – | half-life | 21.6 h
CN1CC[C@@H](c2c(O)cc(O)c3c(=O)cc(-c4ccc(C(F)(F)F)cc4Cl)oc23)[C@@H]1CO | measured: Hypotension | relapsed B-cell malignancies | oral, 200 mg, grade 3-4, intermittent dosing | – | patients with adverse event | 0%
COc1cc2c(Oc3ccc4[nH]c(C)cc4c3F)ccnc2cc1OCC1(N)CC1 | – | paediatric recurrent refractory sarcoma | 10 mg | – | abdominal pain incidence | 50%
CO[C@H]1C[C@@H]2CC[C@@H](C)[C@@](O)(O2)C(=O)C(=O)N2CCCC[C@H]2C(=O)O[C@H]([C@H](C)C[C@@H]2CC[C@@H](OC(=O)NCCOCCOCCOCCOCCOCCOCCOCCOCCC(=O)N3CCc4cc(Cn5nc(-c6ccc7oc(N)nc7c6)c6c(N)ncnc65)ccc4C3)[C@H](OC)C2)C[C@@H](O)[C@H](C)/C=C(\C)[C@@H](O)[C@@H](OC)C(=O)[C@H](C)C[C@H](C)/C=C/C=C/C=C/1C | – | patients with advanced solid tumours | intravenous, 1.6 mg/3 mg weekly, grade ≥3 | – | incidence of Nausea TEAE | 0%
COc1ccc2nc3cc(Cl)ccc3c(Nc3cc(CN4CCCC4)c(O)c(CN4CCCC4)c3)c2n1 | – | mouse, blood | intraperitoneal, 14 mg/kg | – | eosinophil count | 1.49 10⁹/L
Cc1cc(C)c(CNC(=O)c2cc(Cl)c3c(c2C)O[C@@](C)([C@H]2CC[C@H](N(C)C)CC2)O3)c(=O)[nH]1 | – | human, relapsed/refractory NHL | concentration not given, treatment-related TEAEs, grade 5 | – | Pneumonia incidence | 0%
CCCCCCCCCCCCCCCC(=O)N[C@@H](CCC(=O)NCCCC[C@H](NC(=O)[C@H](CC(=O)O)NC(=O)[C@H](CO)NC(=O)[C@@H](NC(=O)[C@H](Cc1ccccc1)NC(=O)[C@@H](NC(=O)CNC(=O)[C@H](CCC(N)=O)NC(=O)[C@H](CO)NC(=O)[C@@H](N)Cc1c[nH]cn1)[C@@H](C)O)[C@@H](C)O)C(=O)N[C@@H](CO)C(=O)N[C@@H](CCC(=O)O)C(=O)N[C@@H](Cc1ccc(O)cc1)C(=O)N[C@@H](CC(C)C)C(=O)N[C@@H](CC(=O)O)C(=O)N[C@@H](CO)C(=O)N[C@@H](CCC(=O)O)C(=O)N[C@@H](CCCNC(=N)N)C(=O)N[C@@H](C)C(=O)N[C@@H](CCCNC(=N)N)C(=O)N[C@@H](CC(=O)O)C(=O)N[C@@H](Cc1ccccc1)C(=O)N[C@H](C(=O)N[C@@H](C)C(=O)N[C@@H](Cc1c[nH]c2ccccc12)C(=O)N[C@@H](CC(C)C)C(=O)N[C@@H](CCC(=O)O)C(=O)N[C@@H](C)C(=O)NCC(=O)NCC(=O)O)C(C)C)C(=O)O | – | human, CrCl ≥ 90 mL/min | sc, 100 µg single dose | – | abdominal distension | 12.5%
COc1ccnc(C(=O)N[C@H]2COC(=O)[C@H](Cc3ccccc3)[C@@H](OC(=O)C(C)C)[C@H](C)OC2=O)c1OCOC(=O)C(C)C | – | water/sediment | 20 °C, whole system, geometric mean, aerobic dark | – | DT50 | 0.76 days
C[C@]1(CO)Cc2ncn(-c3ccc(C#N)c(Cl)c3)c2C(=O)O1 | – | healthy European subjects | dose not given, single dose, all doses | – | subjects with TEAE | 27.1%
Clc1cc2c(cc1Cl)Oc1cc(Cl)c(Cl)cc1O2 | RNA-Seq, measured: Cyp1b1 | Sprague-Dawley rat, female, liver | 10 µg/kg | reference: vehicle | mRNA fold change | 335 fold
O=C(O)C(F)(F)C(F)(F)C(F)(F)C(F)(F)C(F)(F)C(F)(F)C(F)(F)F | two-compartment model | human, plasma | oral, 50 mg weekly | – | AUC | 4840 µg·h/mL
COc1ccc([C@@H](O)c2cc(-c3ncnc4cc(N5CCOCC5)ccc34)c(F)cc2Cl)nn1 | – | patients, advanced solid tumours | oral, 250 mg twice daily, treatment-emergent, added: avelumab | – | hypocalcaemia incidence | 3%
O=C(Nc1ccccc1)C1CCN(C(=O)Oc2cccnc2)CC1 | – | healthy women | oral, 20 mg, 7 days | – | adverse event Headache | 0%

Excerpt of the above:
Compound | test | test system | conditions | how to read | endpoint | result
CO[C@H]1C[C@@H]2CC[C@@H](C)[C@@](O)(O2)C(=O)C(=O)N2CCCC[C@H]2C(=O)O[C@H]([C@H](C)C[C@@H]2CC[C@@H](OC(=O)NCCOCCOCCOCCOCCOCCOCCOCCOCCC(=O)N3CCc4cc(Cn5nc(-c6ccc7oc(N)nc7c6)c6c(N)ncnc65)ccc4C3)[C@H](OC)C2)C[C@@H](O)[C@H](C)/C=C(\C)[C@@H](O)[C@@H](OC)C(=O)[C@H](C)C[C@H](C)/C=C/C=C/C=C/1C | – | patients with advanced solid tumours | intravenous, 1.6 mg/3 mg weekly, grade ≥3 | – | incidence of Nausea TEAE | 0%
